Measured values collected from several papers.
Each line is one published result; not all experiments were run side by side.
Target: Serine/threonine-protein kinase 16 (STK16, Homo sapiens, UniProt O75716)

Compound | test | system | conditions | how to read | quantity | value
CN1CCN(Cc2ccc(-c3ccc(CO[C@H]4CCC[C@@H]4NC(=O)c4cc(-c5cnn(C)c5)cnc4N)cc3)cc2)CC1 | enzyme activity, inhibitor |  | 0.1 µM |  | inhibition | -7%
O=C(Cc1ccc(OCc2ccccc2)cc1)NC1(C(=O)O)CCN(C(=O)c2ccc(-c3cccc(Cl)c3)cc2)CC1 | enzyme activity, inhibitor |  | 10 µM |  | activity vs control | 120%
C=CC(=O)N1CCCC(n2c(=O)c3ncccc3n(Cc3ccc(Oc4ccccc4)cc3)c2=O)C1 (centres unmarked) | cell-free assay, competition with immobilised ligand |  | 1 µM |  | remaining binding | 100%
Cc1cccc(O[C@H]2CCC[C@@H](C(C)CNCc3ccncc3)C2)c1 (relative stereo) | enzyme activity, inhibitor |  | 10 µM |  | inhibition | -1%
Cc1ccc(-c2c(/C=C(\C#N)C(=O)NC(C)C)n(CCCO)c3ncnc(N)c23)cc1 | cell-free assay, competition with immobilised ligand |  | 1 µM |  | remaining binding | 22%
CCN1CCN(Cc2ccc(C(=O)Nc3ccc(C)c(NCc4cnc5[nH]ccc5c4OC)c3)cc2C(F)(F)F)CC1 | binding, competition with immobilised ligand |  | 1 µM |  | remaining binding | 100%
CNC(=O)C1CCN(c2cc(C)c(F)cc2NC(=O)c2ccc(-c3cc(O)ccc3C)c(C)c2)CC1 | binding, competition with immobilised ligand |  | 1 µM |  | remaining binding | 100%
Nc1ncc(-c2cc(-c3cnn(CC(F)(F)F)c3)ncc2F)nc1C(=O)NC1CNCC(F)C1 (centres unmarked) | enzyme activity |  | 1 µM | relative to: DMSO control | remaining activity | 91.4%
Cc1ccc(C(=O)Nc2ccc(CN3CCN(C)CC3)c(C(F)(F)F)c2)cc1C#Cc1cnc2cccnn12 | target engagement, NanoBRET | human cells |  |  | Hill slope | -0.559
NC(=O)[C@@H](O)C[C@H]1CCc2sc3ncnc(O[C@H]4CC[C@H](N5CCOCC5)CC4)c3c21 | enzyme activity, inhibitor |  | 10 µM |  | inhibition | 4%
CNC(=O)C[C@H](Cc1ccc(C#N)cc1)NC(=O)c1cc(-c2ccc(CN[C@H](C)c3ccc(C)cc3)o2)ccc1Cl | enzyme activity, inhibitor |  | 1 µM |  | activity vs control | 108%
C=CC(=O)Nc1cccc(-c2cnc3[nH]cc(C(=O)NC(C)(C)C)c3n2)c1 | enzyme activity, inhibitor |  | 0.1 µM |  | inhibition | 2%
Nc1ncc2c(n1)-c1c([nH]c3ccc(C4=CCOCC4)cc13)CCC2 | binding, competition with immobilised ligand |  | 1 µM |  | remaining binding | 29%
C=CC(=O)N1Cc2nc(-c3cc(-c4cc(Cl)cnc4Cl)c(F)cc3F)n(-c3ccncn3)c2C1 | cell-free assay, inhibitor |  | 1 µM |  | inhibition | -3.8%

Repeated from above:
Compound | test | system | conditions | how to read | quantity | value
CCN1CCN(Cc2ccc(C(=O)Nc3ccc(C)c(NCc4cnc5[nH]ccc5c4OC)c3)cc2C(F)(F)F)CC1 | binding, competition with immobilised ligand |  | 1 µM |  | remaining binding | 100%
CNC(=O)C1CCN(c2cc(C)c(F)cc2NC(=O)c2ccc(-c3cc(O)ccc3C)c(C)c2)CC1 | binding, competition with immobilised ligand |  | 1 µM |  | remaining binding | 100%
